Experimental data pooled from the literature.
A part holds a random share of what one study measured. Substitutions count along the parent as printed.

Block 1
Target: RING finger protein unkempt homolog, zinc fingers 1-6, GST-SBP tag (UNK, Homo sapiens, UniProt Q9C0B0, residues 30-357)
Sequence of UniProt Q9C0B0 (30-357, looked up): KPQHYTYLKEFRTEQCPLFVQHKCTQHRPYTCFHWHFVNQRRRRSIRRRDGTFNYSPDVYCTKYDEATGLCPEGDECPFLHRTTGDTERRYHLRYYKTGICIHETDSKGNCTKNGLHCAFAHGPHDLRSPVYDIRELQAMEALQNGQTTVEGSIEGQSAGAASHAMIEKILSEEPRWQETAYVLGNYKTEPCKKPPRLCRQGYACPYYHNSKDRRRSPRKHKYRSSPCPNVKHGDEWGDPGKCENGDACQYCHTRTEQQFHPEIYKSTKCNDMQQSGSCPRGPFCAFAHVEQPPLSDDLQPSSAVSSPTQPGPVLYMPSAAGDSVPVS
Method: RNA Bind-n-Seq
Molecule type: RNA
Matrix: in vitro
Tested at: not given
Notes: RNA with constant flanks, ends assumed
Reference: input RNA pool
Direction: higher = stronger binding
Measurement: bound/input enrichment
Shared flanks, not repeated: GGGAGUUCUACAGUCCGACGAUC … CAACAGAGGAUUGAGCAUCA
AUGGAACAGAAACAUAGAGAGGAACUGGAGCAAUUGAAGCUGACUACUAAGGAGAAUAAGACCGAUUCUGUUGCUGUUAACAUUUCAAACUUGGUGCUUGAGAAUCAGCCACCUCGGAUA: 0.261 ratio
ACAGAUGGGAAACACGGACUUAAGUGUAUGUUUCAUAUACUGACAGUGGGACAUGGUUCUACCGAUCAAUUAUAAUAAUAAAUAUUUUAAUUUAUCAUAAUUUAUAAAAGCUUUGUUGUU: 3.26 ratio
UUCCCUCGGUUCCAGUCUUCCCUUUAAAAGCCUGUGGCAUUUUUCCUCCUUCUCCCUAACUUCCGAAAUGUUGUACUUGGCUAUUUUGAUUAGGGAAGAGGGAUGUGGUCUCUGAUCUCU: 0.109 ratio
AUAACUUCUAAGGAUAAUUUAGAAGAUGAGACUGAAGAUGAUGACCUAUUUGAAACUGAGUUCCGACAAUAUAAAAGAACAUAUUACAUGACGAAGAUGGGGGUUGACGUAGUAUCUGAU: 0.477 ratio
GACAGAGAGGCACCUGGGUCAGUAUUAGUCUAUUUAUCAGAGGUGUAAAUAAUCUAUGUACCGUUUUUCUCCUUUUAGAUUAUUUUGUAUUUGUUUAAAAGAAGUUUUGUCAAAAUACAA: 6.27 ratio
UGAAUACACAGUACAUCAUACAUCCUUUACAAGCAAGUUCAAUGGAGAUUACGUUGAAAUCACCGAAGAUGCAAAUGACCUUUCAAAGUCAACACAAUGUGUUCUGAAACCUCGUGACUA: 0.159 ratio
GAUGUGUGUGUGAUGGUUAUUUUGUUUUGUUUUGUUUUGUUUUGUGACAGGGUCUCUCUCCACCGACAUAGUCCUGGCUAUUCUAGAGCUCACUGUGUAGACCAGGCUGGCCUUGAACAG: 1.07 ratio

Block 2
Target: RNA binding protein fox-1 homolog 2, RRM domain, GST-SBP tag (RBFOX2, Homo sapiens, UniProt O43251-10, residues 100-194)
Method: RNA Bind-n-Seq
Molecule type: RNA
Matrix: in vitro
Tested at: 365 nM
Notes: natural RNA segment, single round, ends assumed
Reference: no-protein control
Direction: higher = stronger binding
Measurement: RBNS enrichment (R)
Shared flanks, not repeated: GGGAGUUCUACAGUCCGACGAUC … UGGAAUUCUCGGGUGCCAA
Residues (chain): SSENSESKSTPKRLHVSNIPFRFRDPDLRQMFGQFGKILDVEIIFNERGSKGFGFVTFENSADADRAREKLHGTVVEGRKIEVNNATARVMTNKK
CAAGCUGAAACACCACUGCAUCCGCGUGGCCUUAUGACCUCCUUGCCCACUCACAGAGGCUGGAGGCAGCGACACUGGAACGGAGAAGAGAGAUCUGCAUGAGGGUGAGA: 8.23
AUGUCCAGACCCACAGCAGAGUGAAGUCUGAGUGCUCCUAACAACCCACAGCAGCCACGCUAGAAGCUUAAUGGAUUCGGAGCCCAUGAGAGAAAGAACACAGGCUUCCU: 0.743
AGGUGUGGGCAUUUAAGAGGUACCAGAGGGAAAGGAGCCUCCGAAGGACUCGCAGGGGCAGUCGCAGCUGAUGUUUGAGUGCCCUGGGAUGGGAGUCAGACUGGCUGAGG: 0.779
GUUAUGGGAAAGGGAGGGGGAGAAGAAAUUGACAUUUAUUUUAUUAUUUAUUUUAAAUGUUUACAUCUUCUUUAUGUUGUAUCAAGCCUGAAUAGAAACUGAUAGCAUUA: 2.03
UAACUAAUGUUAUUUUUUAAAACCUGGACCUUUUCUGGAAGGGCAGCAUAUAAAAACAUCAGUCCCGAGGAGGGGACAACAAUACUACCUCACUACUACAUCUGUGAUGA: 0.271
GUAUUUUGAGAAAUGGCACAAAAACAGGCAGUCAUCUUUAAGGGCUAUGCCUAGGCAAACUACUAACAUGCAUUGUGAGAAUGCCGUGUAUACCUCACGUACUGUGUACU: 0.477
GAAGAGGGAACAAUGGCGUUUUUCGAACUUAUUUCUCUCUAAUCCAGCCUGGAGGAUUUUUAGCCGAAACAGUUGCAUGUGAAGGAUUAUCAGCCAUCUUUGCAUAUCCC: 3.59
UUCAUCAGUUCCUAACCUACUCUGCAGAACUGCAACAGUUCGCUCAGGCCAGUGUUGAAACUUUCACACCCUGAGUGACUACGGGAGAACUGCCAGCUUCCGCUUCUCUG: 0.31
AGGCCAGGAAGGCAGUGGGGAUCCACCAUCACAUGGAACUGUAAGGCCAUAUAACUACACAAAACUGACCAAUCUGGGUUGCCAAAGCAGCCAGGCUUAUGCUGAAACCG: 0.375
UAUGGAGACUGAUUUGGUGGGAAAAAACCUGUUACUUUCCAGUCACCCCAGGUUCUGACUUUACCUGGGGCAAAAACAAACCACAAAAAGGGAGAAUCUCAUCUGUGAAU: 0.541
UUUGUUUGGCUGGCCACUAGGUGGCAGCAUUGGUUCUACUUCUCUGCUUUUUAAGAGAAAUUUCAGGAAGGAUGAUCAUUCCAGUUAGUUUGGCAUUUUUUGUCGUUUGU: 0.405
UGUCACGACUUAAGAUUAGAUGAUCUCUACUGACCUCUUCUCAUAGAUUUUGUAUAAAUGAAGUGCUGGACUUUACCUGAAAGCUGCAAAAAUUAAUGGUUUAGAUAUAU: 0.605

Block 3
Target: Sal-like protein 4, full length isoform A (SALL4, Homo sapiens, UniProt Q9UJQ4, residues 1-1053)
Sequence of UniProt Q9UJQ4 (whole entry, looked up): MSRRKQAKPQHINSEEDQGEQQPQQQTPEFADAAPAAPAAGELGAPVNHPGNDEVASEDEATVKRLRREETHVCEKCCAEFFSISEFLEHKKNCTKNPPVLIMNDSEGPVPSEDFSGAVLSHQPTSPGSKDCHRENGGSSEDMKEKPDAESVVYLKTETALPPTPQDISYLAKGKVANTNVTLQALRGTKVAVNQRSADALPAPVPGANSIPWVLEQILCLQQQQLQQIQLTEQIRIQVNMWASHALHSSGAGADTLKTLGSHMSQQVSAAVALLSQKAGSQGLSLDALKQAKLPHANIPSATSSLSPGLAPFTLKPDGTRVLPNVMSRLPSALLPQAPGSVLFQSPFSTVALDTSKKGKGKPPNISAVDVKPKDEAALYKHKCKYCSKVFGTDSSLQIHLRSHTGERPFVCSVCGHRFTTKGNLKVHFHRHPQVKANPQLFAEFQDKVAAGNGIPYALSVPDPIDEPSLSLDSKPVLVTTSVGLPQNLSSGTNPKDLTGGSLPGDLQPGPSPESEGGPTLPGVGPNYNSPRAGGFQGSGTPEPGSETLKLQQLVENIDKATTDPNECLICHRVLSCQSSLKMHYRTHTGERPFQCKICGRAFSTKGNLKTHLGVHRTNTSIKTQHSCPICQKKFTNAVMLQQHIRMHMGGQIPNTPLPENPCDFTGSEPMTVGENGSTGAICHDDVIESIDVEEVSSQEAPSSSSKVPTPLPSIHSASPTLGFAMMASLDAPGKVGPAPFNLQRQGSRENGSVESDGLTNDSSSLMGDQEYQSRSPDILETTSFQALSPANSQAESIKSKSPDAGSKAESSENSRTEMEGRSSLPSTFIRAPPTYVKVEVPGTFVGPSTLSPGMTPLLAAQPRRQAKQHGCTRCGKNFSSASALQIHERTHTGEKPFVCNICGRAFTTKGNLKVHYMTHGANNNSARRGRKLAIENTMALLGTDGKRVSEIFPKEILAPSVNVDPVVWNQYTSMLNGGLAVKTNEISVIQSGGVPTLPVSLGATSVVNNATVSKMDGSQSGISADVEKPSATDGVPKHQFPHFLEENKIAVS
Method: universal PBM
Molecule type: double-stranded DNA, one strand shown
Matrix: in vitro
Tested at: 600 nM
Notes: 8-mer, flanks averaged, mean of replicates
Direction: higher = stronger binding
Measurement: E-score
ATGTAGGG: 0.0692
TGTCGACA: 0.0276
ATGTAACA: 0.282
GTTTAACA: 0.18
CGGGCTGA: -0.338
GCTTTATA: 0.157
CAGGCAAA: 0.147
AATCCGGT: -0.14
CCATCTAG: -0.0053
CCCATGTC: -0.187
GCTCATAA: 0.199
GTAACGCA: 0.0689
ATCGCTGG: -0.157
ACAAGCGG: -0.0923
TTCTACAA: 0.171
ACGAACCT: -0.035
AAGTGAAG: 0.201
GATGCGGA: -0.216
CTCTATGA: 0.0895
TCCTGGAA: -0.161
CCTGGGTA: -0.267
CCCGTATC: -0.216
GAGGGACC: -0.285
CGTTGACA: -0.124
CATACGGG: -0.171

Block 4
Organism: Saccharomyces cerevisiae
Observed: peptide binding
Method: yeast competitive growth sequencing
Molecule type: peptide
Strain: cyclin F-Cln2 fusion
Tested at: concentration not given
Notes: Cln2 background subtracted
Direction: direction not given
Measurement: binding score
REPARRLFLFGEE: 5.65
KLLPRKLQFFCDP: 6.25
APPRKALFTYPKG: 1.76

Block 5
Target: Fragile X messenger ribonucleoprotein 1, C-terminal low-complexity region (Fmr1, Mus musculus, UniProt P35922)
Method: RNA Bind-n-Seq
Molecule type: RNA
Matrix: in vitro
Tested at: 200 nM
Notes: whole 134-nt RNA, ends assumed
Added: 150 mM KCl
Reference: input library
Direction: higher = stronger binding
Measurement: log2 enrichment
Shared flanks, not repeated: GGGAGUUCUACAGUCCGACGAUC … UGGAAUUCUCGGGUGUCAAGG
CUCAAGUCCUGUGCUACACAUCGUAUGUACCGAAUCGGGUGGGAAAGGGAGGGAAAGUAUUAUGUUACGCCGUUCGGAUCUGCACUUCCA: 1.19
GUCCUGUGCUACACAUCGUAUGUACCGAAUCGGAAAAAGGUUUUUUUGGUUUUUUUGGAAAGUAUUAUGUUACGCCGUUCGGAUCUGCAC: -1.28
CACAGACAACACGCACCCACACAGACACAGAGGGAAGGGGGUGGGAUGGGGACAGGGUGCACAGCAGGGCGGGGUAGGACCCCAGCCCCU: 1.13
CUGUGCUACACAUCGUAUGUACCGAAUCGGGGUUUGGGGUUUUUUUGGGGUUUUUUUGGGGAAAGUAUUAUGUUACGCCGUUCGGAUCUG: 0.0991
CUCAAGUCCUGUGCUACACAUCGUAUGUACCGAAUCGGGCCGGCCGGCCGGGGAAAGUAUUAUGUUACGCCGUUCGGAUCUGCACUUCCA: 0.0121
AAGUCCUGUGCUACACAUCGUAUGUACCGAAUCGGGUUUUUUUGGGUGGGAAAGGGAAAGUAUUAUGUUACGCCGUUCGGAUCUGCACUU: 0.69
GCAGGAAGUAAAAACAAAUGGAAAUGCUUCGAAUAGUGGCAGGGGUGGGGGUUGCUAAGGAAAGGGUGGGAUGGGAGUGGGUAAAGAGUU: 0.418
GUCCUGUGCUACACAUCGUAUGUACCGAAUCGGAAAAAAAGGAAAAAAAGGUUUUUGGAAAGUAUUAUGUUACGCCGUUCGGAUCUGCAC: -1.03
UCCUGUGCUACACAUCGUAUGUACCGAAUCGGGGUUUUUUUGGGGAAAAAGGGGUGGGGAAAGUAUUAUGUUACGCCGUUCGGAUCUGCA: 0.729
UCCUGUGCUACACAUCGUAUGUACCGAAUCGGGGUUUUUUGGUUUUUUGGGGUUUUUUGGAAAGUAUUAUGUUACGCCGUUCGGAUCUGC: 0.0113
UCAAGUCCUGUGCUACACAUCGUAUGUACCGAAUCGGGCCGGGGCCGGCCGGGGAAAGUAUUAUGUUACGCCGUUCGGAUCUGCACUUCC: -0.171
CCUCAAGUCCUGUGCUACACAUCGUAUGUACCGAAUCGGUUGGUUGGGUUGGAAAGUAUUAUGUUACGCCGUUCGGAUCUGCACUUCCAG: -0.00829
GUCCUGUGCUACACAUCGUAUGUACCGAAUCGGGAAAAAAAGGGUGGGUUUUUUUGGGAAAGUAUUAUGUUACGCCGUUCGGAUCUGCAC: 0.0856
CACAGACAACACGAAACCACACAGACACAGAGGGAAGGGGUUGGGAUGGGGACAGGGUGCACAGCAGGGCGGGGUAGGACCCCAGCCCCU: 1.35

Block 6
Target: ABI1, truncated, D143A, DHFR fusion (Arabidopsis thaliana)
Method: DHFR PCA, deep sequencing
Matrix: yeast
Notes: methotrexate growth selection, single substitutions
Added: (+)-ABA 1.4 µM
Reference: wild-type fitted maximum
Direction: higher = stronger binding
Measurement: relative binding score
Parent: PYL1, truncated, DHFR fusion (Arabidopsis thaliana); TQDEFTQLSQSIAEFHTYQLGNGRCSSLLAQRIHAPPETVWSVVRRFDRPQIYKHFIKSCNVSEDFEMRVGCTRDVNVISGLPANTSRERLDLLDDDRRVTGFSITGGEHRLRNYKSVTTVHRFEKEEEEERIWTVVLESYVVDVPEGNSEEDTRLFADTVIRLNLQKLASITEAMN
T154K: -2.77%
R45E: -2.22%
H34R: 47.9%
N114M: -4.94%
E14I: 3.66%
L112T: -3.24%
L82P: 7.23%
D92K: 2.23%
V142D: 7.16%
T135S: 48.7%
A13W: 5.77%
S150V: 5.72%
E152D: 55.7%
K54M: -8.9%
D3S: 40.5%
I57N: 2.79%

Block 7
Target: CEP164, C-terminal peptide (human)
Method: DHFR complementation, deep sequencing
Matrix: yeast
Notes: single substitutions, model-inferred values
Reference: wild type
Direction: higher = weaker binding
Measurement: binding free energy change
Parent: PDZK1, PDZ domain 2 (human); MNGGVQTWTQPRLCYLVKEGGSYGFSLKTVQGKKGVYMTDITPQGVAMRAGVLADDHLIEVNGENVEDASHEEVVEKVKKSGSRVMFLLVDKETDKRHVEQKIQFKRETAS; partner HNRVKVYRF
M86D: 0.0453 kcal/mol
G24K: 1.01 kcal/mol
A54K: 0.119 kcal/mol
K33P: 0.814 kcal/mol
F87I: 0.656 kcal/mol
F25Y: 1.36 kcal/mol
F25Q: 1.36 kcal/mol
V75R: 2.48 kcal/mol
P11W: 0.382 kcal/mol
E73G: 0.401 kcal/mol
G63N: 0.117 kcal/mol
E93S: -0.0628 kcal/mol

Repeated from above (block 5):
GUCCUGUGCUACACAUCGUAUGUACCGAAUCGGAAAAAGGUUUUUUUGGUUUUUUUGGAAAGUAUUAUGUUACGCCGUUCGGAUCUGCAC: -1.28
CACAGACAACACGCACCCACACAGACACAGAGGGAAGGGGGUGGGAUGGGGACAGGGUGCACAGCAGGGCGGGGUAGGACCCCAGCCCCU: 1.13
CUGUGCUACACAUCGUAUGUACCGAAUCGGGGUUUGGGGUUUUUUUGGGGUUUUUUUGGGGAAAGUAUUAUGUUACGCCGUUCGGAUCUG: 0.0991
CUCAAGUCCUGUGCUACACAUCGUAUGUACCGAAUCGGGCCGGCCGGCCGGGGAAAGUAUUAUGUUACGCCGUUCGGAUCUGCACUUCCA: 0.0121
AAGUCCUGUGCUACACAUCGUAUGUACCGAAUCGGGUUUUUUUGGGUGGGAAAGGGAAAGUAUUAUGUUACGCCGUUCGGAUCUGCACUU: 0.69
